Measured values of several laboratories.
Lines come from different studies, so protocols differ.
Technique: steady-state kinetics
B1: enzyme A178R/D177A/M179H/P184R (Levilactobacillus brevis, UniProt Q03Q85); chain MKVTVVGCTHAGTFAIKQILAEHPDAEVTVYERNDVISFLSCGIALYLGGKVADPQGLFYSSPEELQKLGANVQMNHNVLAIDPDQKTVTVEDLTNHAQTTESYDKLVMTSGSWPIVPKIPGIDSDRVKLCKNWAHAQALIEDAKEAKRITVIGAGYIGAELAEAYSTTGHDVTLIARHARVMRKYFDADFTDVIEQDYRDHGVQLALGETVESFTDSATGLTIKTDKNSYETDLAILCIGFRPNTDLLKGKVDMAPNGAIITDDYMRSSNPDIFAAGDSAAVHYNPTHQNAYIPLATNAVRQGILVGKNLVKPTVKYMGTQSSSGLALYDRTIVSTGLTLAAAKQQGLNAEQVIVEDNYRPEFMPSTEPVLMSLVFDPDTHRILGGALMSKYDVSQSANTLSVCIQNENTIDDLAMVDMLFQPNFDRPFNYLNILAQAAQAKVAQSVNA
B2: enzyme (Bacillus pumilus, UniProt A8FFI9); chain EARSIAWSVDEFFKNREGTFVIQEVKEKSPWVYNKKRAKERFAPQSTFKVANALIGLQTGAVRDEYDIKYWDGVKREIDNWNRDHTLGSGMRDSVVWYYQAMARDIGEERMNHWVKAIHYGNKDISGGIDQFWLSSTLRISPIEQVRFLKQLYEETLPFDLKNMRTVKRMMVQEEEKHATLYGKTGSGSDIGWYVGFIKHEHKTYILATNIKGTGIEAKDITYRILKKYHLMEASV
B3: MauG P127V (Paracoccus denitrificans, UniProt Q51658); chain EQARPADDALAALGAQLFVDPALSRNATQSCATCHDPARAFTDPREGKAGLAVSVGDDGQSHGDRNTPTLGYAALVPAFHRDANGKYKGGQFWDGRADDLKQQAGQVMLNPVEMAMPDRAAVAARLRDDPAYRTGFEALFGKGVLDDPERAFDAAAEALAAYQATGEFSPFDSKYDRVMRGEEKFTPLEEFGYTVFITWNCRLCHMQRKQGVAERETFTNFEYHNIGLPVNETAREASGLGADHVDHGLLARPGIEDPAQSGRFKVPSLRNVAVTGPYMHNGVFTDLRTAILFYNKYTSRRPEAKINPETGAPWGEPEVARNLSLAELQSGLMLDDGRVDALVAFLETLTDRRYEPLLEESRAAQKD
B4: protein (Amanita muscaria, UniProt A0A650FNW1); chain MSTKPETDLQTVLDSEIKEWHFHIYFHQNNAAEHQAALELRDAVLRLRQDGAFVAVPLFRVNMDPMGPHPVGSYEIWVPSETFASVFSYLCMNRGRLSILVHPLTREELRDHEIRNAWIGPSFPLNLANLPIKSDEIPLQYPSLKLGYSSTAHKMSLEERRKLGDDIEAVLRGEKEAARAPHRDA
B5: LYS1 C205S/D319A (Saccharomyces cerevisiae, UniProt P38998); chain MAAVTLHLRAETKPLEARAALTPTTVKKLIAKGFKIYVEDSPQSTFNINEYRQAGAIIVPAGSWKTAPRDRIIIGLKEMPETDTFPLVHEHIQFAHCYKDQAGWQNVLMRFIKGHGTLYDLEFLENDQGRRVAAFGFYAGFAGAALGVRDWAFKQTHSDDEDLPAVSPYPNEKALVKDVTKDYKEALATGARKPTVLIIGALGRSGSGAIDLLHKVGIPDANILKWDIKETSRGGPFDEIPQADIFINCIYLSKPIAPFTNMEKLNNPNRRLRTVVDVSADTTNPHNPIPIYTVATVFNKPTVLVPTTAGPKLSVISIAHLPSLLPREASEFFSHDLLPSLELLPQRKTAPVWVRAKKLFDRHCARVKRSSRL
B6: TcC (Trypanosoma cruzi, UniProt Q4DGA3); chain MPREYEFAEKILFTEEEIRTRIMEVAKRIADDYKGKGLRPYVNPLVLISVLKGSFMFTADLCRALSDFNVPVRMEFICVSSYGEGVTSSGQVRMLLDTRHSIEGHHVLIVEDIVDTALTLNYLYHMYFTRRPASLKTVVLLDKREGRRVPFSADYVVANIPNAFVIGYGLDYDDTYRELRDIVVLRPEVYAEREAARQKKQRAIGSADTDRDAKREFHSKY
UniProt Q9LIN2, sequence (whole entry, looked up): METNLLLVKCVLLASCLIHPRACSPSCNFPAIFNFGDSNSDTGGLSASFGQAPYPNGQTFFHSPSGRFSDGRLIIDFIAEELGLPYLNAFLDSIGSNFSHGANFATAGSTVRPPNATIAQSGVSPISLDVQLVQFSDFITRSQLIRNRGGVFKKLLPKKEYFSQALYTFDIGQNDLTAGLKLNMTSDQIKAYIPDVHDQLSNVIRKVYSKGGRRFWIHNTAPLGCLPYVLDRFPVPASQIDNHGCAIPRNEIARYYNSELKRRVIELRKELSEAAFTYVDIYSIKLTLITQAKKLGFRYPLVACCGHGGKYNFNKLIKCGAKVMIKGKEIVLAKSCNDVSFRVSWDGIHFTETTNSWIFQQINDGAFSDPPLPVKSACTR
UniProt P08253, sequence (whole entry, looked up): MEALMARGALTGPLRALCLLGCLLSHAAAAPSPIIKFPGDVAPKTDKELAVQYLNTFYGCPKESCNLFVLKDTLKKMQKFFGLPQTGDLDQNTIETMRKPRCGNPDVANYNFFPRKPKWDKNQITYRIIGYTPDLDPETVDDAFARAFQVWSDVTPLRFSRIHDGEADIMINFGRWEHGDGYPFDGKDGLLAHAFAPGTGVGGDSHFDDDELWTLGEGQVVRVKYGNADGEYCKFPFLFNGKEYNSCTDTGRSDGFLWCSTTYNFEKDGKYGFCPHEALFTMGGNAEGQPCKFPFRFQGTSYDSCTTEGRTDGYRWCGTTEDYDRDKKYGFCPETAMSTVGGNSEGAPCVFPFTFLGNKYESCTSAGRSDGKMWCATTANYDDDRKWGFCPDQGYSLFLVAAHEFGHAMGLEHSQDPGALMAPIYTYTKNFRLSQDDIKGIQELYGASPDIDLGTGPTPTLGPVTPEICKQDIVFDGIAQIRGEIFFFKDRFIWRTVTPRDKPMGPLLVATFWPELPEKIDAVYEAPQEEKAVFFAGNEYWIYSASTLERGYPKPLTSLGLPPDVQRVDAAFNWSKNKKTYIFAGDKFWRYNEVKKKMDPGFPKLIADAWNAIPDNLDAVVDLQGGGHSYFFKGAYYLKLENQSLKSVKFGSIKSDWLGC
UniProt Q01740, sequence (whole entry, looked up): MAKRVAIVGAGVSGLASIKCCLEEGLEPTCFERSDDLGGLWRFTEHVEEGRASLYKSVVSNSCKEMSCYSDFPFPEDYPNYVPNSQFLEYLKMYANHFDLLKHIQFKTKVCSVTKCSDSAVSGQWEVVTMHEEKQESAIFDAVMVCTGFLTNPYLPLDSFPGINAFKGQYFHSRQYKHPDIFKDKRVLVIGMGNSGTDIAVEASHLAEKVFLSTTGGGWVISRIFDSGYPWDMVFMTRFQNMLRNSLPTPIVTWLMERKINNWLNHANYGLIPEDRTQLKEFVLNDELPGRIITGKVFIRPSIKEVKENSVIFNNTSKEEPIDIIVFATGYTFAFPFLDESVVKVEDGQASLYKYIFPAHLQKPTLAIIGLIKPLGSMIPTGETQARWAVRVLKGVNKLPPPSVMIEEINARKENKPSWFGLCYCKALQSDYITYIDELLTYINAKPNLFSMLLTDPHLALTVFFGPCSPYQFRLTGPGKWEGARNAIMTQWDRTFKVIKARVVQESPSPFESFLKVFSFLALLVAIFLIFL

Molecule | substrate | system | conditions | Km [µM]
CYP2C9 (Homo sapiens, UniProt P11712) | Cc1ccc(Cl)c(Nc2ccccc2C(=O)O)c1Cl |  | pH 7.4, Hill model, CYP2C9, metabolite, not purified | 16.7
B1 (enzyme A178R/D177A/M179H/P184R) | NC(=O)C1=CN([C@@H]2O[C@H](COP(=O)(O)OP(=O)(O)OC[C@H]3O[C@@H](n4cnc5c(N)ncnc54)[C@H](OP(=O)(O)O)[C@@H]3O)[C@@H](O)[C@H]2O)C=CC1 |  | pH 7.5, 37 °C | 15
FMO1 (Homo sapiens, UniProt Q01740) | CN1CCC[C@H]1c1cccnc1 | HEK293 microsomes | 37 °C, not purified, with: NADPH regenerating system | 800
At3g26430 (Arabidopsis thaliana, UniProt Q9LIN2) | CC(=O)Oc1ccc([N+](=O)[O-])cc1 | E. coli soluble lysate | pH 7.5, 30 °C, not purified | 4600
MMP2 (Homo sapiens, UniProt P08253) | CSCC[C@H](NC(=O)CNC(=O)[C@H](CC(C)C)NC(=O)[C@@H]1CCCN1C(=O)CNC(C)=O)C(=O)N[C@@H](Cc1c[nH]cn1)C(=O)NCC(=O)N[C@@H](CCCCN)C(N)=O |  |  | 3560
B2 (enzyme) | CCN1CCN(C(=O)N[C@@H](C(=O)N[C@@H]2C(=O)N3[C@@H]2SC(C)(C)[C@@H]3C(=O)O)c2ccccc2)C(=O)C1=O |  | pH 7 | 15
B3 (MauG P127V) | O=C1O[C@H]([C@@H](O)CO)C(O)=C1O |  | pH 7.5, 25 °C, with: H2O2 100 µM | 2.2
enzyme (Phocaeicola vulgatus, UniProt A6KWY2) | NC(=O)c1ccc[n+]([C@@H]2O[C@H](COP(=O)(O)OP(=O)(O)OC[C@H]3O[C@@H](n4cnc5c(N)ncnc54)[C@H](OP(=O)(O)O)[C@@H]3O)[C@@H](O)[C@H]2O)c1 |  | pH 8, 30 °C, cofactor varied | 3
B4 (protein) | N[C@@H](Cc1ccc(O)c(O)c1)C(=O)O |  | pH 8.5, 25 °C, ascorbic acid 10 mM, with: O2 | 4200
B5 (LYS1 C205S/D319A) | NC(=O)C1=CN([C@@H]2O[C@H](COP(=O)(O)OP(=O)(O)OC[C@H]3O[C@@H](n4cnc5c(N)ncnc54)[C@H](O)[C@@H]3O)[C@@H](O)[C@H]2O)C=CC1 |  | pH 7.2, 25 °C, with: Lys and α-Kg | 230
protein (Streptomyces coelicolor, UniProt Q9K464) | CC(=O)CC(=O)SCCNC(=O)CCNC(=O)[C@H](O)C(C)(C)COP(=O)(O)OP(=O)(O)OC[C@H]1O[C@@H](n2cnc3c(N)ncnc32)[C@H](O)[C@@H]1OP(=O)(O)O |  | pH 7.8, 30 °C, NaCl 150 mM, with: methylmalonyl-CoA 1.0 mM | 75.2
B6 (TcC) | O=P(O)(O)OC[C@H]1O[C@H](OP(=O)(O)OP(=O)(O)O)[C@H](O)[C@@H]1O |  | pH 8.3, 37 °C, GMP biosynthesis, apparent, with: Gua 100 µM | 33

Repeated from above:
Molecule | substrate | system | conditions | Km [µM]
B2 (enzyme) | CCN1CCN(C(=O)N[C@@H](C(=O)N[C@@H]2C(=O)N3[C@@H]2SC(C)(C)[C@@H]3C(=O)O)c2ccccc2)C(=O)C1=O |  | pH 7 | 15
B3 (MauG P127V) | O=C1O[C@H]([C@@H](O)CO)C(O)=C1O |  | pH 7.5, 25 °C, with: H2O2 100 µM | 2.2
